Measurements from different studies.
Numbered parts are unrelated; each lists some results of a single study. Changes are numbered by the printed parent chain.

Series 1
Target: Histone acetyltransferase KAT6A, winged helix 1, GST fusion (KAT6A, Homo sapiens, UniProt Q92794, residues 1-85)
Technique: protein binding microarray
Molecule type: double-stranded DNA, one strand shown
Medium: in vitro
Tested at: not given
Setting: 8-mer, flanks averaged, mean of 2 arrays, mostly near background
Baseline: not given
Reading: higher = stronger binding
Residues (chain): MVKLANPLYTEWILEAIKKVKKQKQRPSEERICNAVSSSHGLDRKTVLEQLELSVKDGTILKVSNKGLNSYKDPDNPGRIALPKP
Strand | E-score
AGTAATCC | -0.118
GACGCTAA | 0.188
GCCCGCTA | 0.319
GCAGGCAC | -0.0146
TACTAAGA | 0.011
CGGCTCGC | 0.286
CACCCACC | -0.163
GTTCCGTA | 0.188

Series 2
Target: CCNB3, cyclin fold, Cln2 fusion (human)
Technique: yeast growth competition, sequencing
Medium: yeast
Setting: weak parent motif
Baseline: not given
Reading: higher = stronger binding
Starting sequence: RB1 docking peptide (human); PKPLKKLRFDIEG; partner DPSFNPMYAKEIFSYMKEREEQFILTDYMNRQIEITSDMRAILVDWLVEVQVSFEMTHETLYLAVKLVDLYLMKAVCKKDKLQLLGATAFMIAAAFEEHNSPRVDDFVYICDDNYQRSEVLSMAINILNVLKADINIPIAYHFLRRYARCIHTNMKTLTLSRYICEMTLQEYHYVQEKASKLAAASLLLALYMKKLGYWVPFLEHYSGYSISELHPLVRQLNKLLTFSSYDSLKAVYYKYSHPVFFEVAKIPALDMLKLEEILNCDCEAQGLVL
Change | normalised enrichment score
PKPLKKLIFDIEG [R8I] | 0.286
YKPLKKLRFDIEG [P1Y] | 0.01
PKPLKKNRFDIEG [L7N] | -0.106
PKPLKKLNFDIEG [R8N] | 0.695
PKPLKKLRFDIER [G13R] | 0.469
PKPLKRLRFDIEG [K6R] | 0.778
PKPLKTLRFDIEG [K6T] | 0.135
PKPLKKLRFDAEG [I11A] | 0.426
PKPCKKLRFDIEG [L4C] | 0.112

Series 3
Target: ABI1, truncated, D143A, DHFR fusion (Arabidopsis thaliana)
Technique: DHFR PCA, deep sequencing
Medium: yeast
Setting: methotrexate growth selection, single substitutions
Added: (+)-ABA 2500 µM
Baseline: wild-type fitted maximum
Reading: higher = stronger binding
Starting sequence: PYL1, truncated, DHFR fusion (Arabidopsis thaliana); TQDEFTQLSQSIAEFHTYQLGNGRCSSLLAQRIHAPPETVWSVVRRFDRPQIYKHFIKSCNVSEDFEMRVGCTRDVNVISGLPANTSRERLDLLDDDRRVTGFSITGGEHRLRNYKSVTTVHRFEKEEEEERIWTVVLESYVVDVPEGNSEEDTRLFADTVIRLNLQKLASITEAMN; partner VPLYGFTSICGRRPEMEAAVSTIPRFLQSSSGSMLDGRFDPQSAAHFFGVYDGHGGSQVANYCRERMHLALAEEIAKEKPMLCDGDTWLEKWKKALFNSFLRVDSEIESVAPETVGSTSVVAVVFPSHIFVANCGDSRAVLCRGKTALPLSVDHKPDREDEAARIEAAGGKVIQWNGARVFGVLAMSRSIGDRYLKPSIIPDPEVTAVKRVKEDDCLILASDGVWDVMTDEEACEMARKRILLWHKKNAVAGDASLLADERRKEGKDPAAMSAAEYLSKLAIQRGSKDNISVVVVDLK
Change | relative binding score [%]
C60Y | 54.4
T160D | 17.6
T173Y | 81.3
T17E | 102
N114R | 101
A30K | 102
L138M | 104

Further values, each from its own experiment
Substance | target | assay | test system | setting | how to read | endpoint | result
PhoQ, residues 284 288 289 292 302 303 NLGVHL | PhoP, residues 12 14 15 18 19 NNFVT (Escherichia coli, UniProt P23836) | Sort-seq, refers to: YFP reporter | E. coli | PhoQ-PhoP variant library, added: 10 µM Mg2+ | baseline: high Mg2+ state, higher = stronger signaling | fold induction | 11.3

Excerpt of the above (series 1):
Strand | E-score
TACTAAGA | 0.011
CGGCTCGC | 0.286
